Measurements from different studies.
Lines come from different studies, so protocols differ. Numbers after ± are the reported error.

Structure (SMILES) | target or system | test | test system | setting | how to read | measurement | value
c1cc(CN2CCOCC2)cc(Nc2nccc(NCCc3cnc[nH]3)n2)c1 | – | PAMPA | PBS | 5 h, pH 7.4 | – | effective permeability | 1.66e-07 cm/s
COc1cc(C(=O)NC2CCN(C)CC2)c(F)cc1Nc1ncc(C(F)(F)F)c(Oc2cccc3c2C(=O)N(C)C3)n1 | – | – | human patients, plasma | oral, 50 mg once daily repeated, geometric mean | – | dose-normalised AUC(tau) at steady state | 97.8 nmol·h/L per mg
C=CCN1CC(=O)N2[C@@H](Cc3ccc(O)cc3F)C(=O)N(Cc3cccc(N4CC(N5CCN(CC)CC5)C4)n3)C[C@@H]2N1C(=O)NCc1ccccc1 | – | – | advanced solid tumour patients | oral, 20 mg twice daily, grade ≥3, dose-escalation | – | treatment-related diarrhoea | 0%
Cc1cc2sc(N)nc2c2cccnc12 | – | – | female BALB/c mice, plasma | i.p., 30 mg/kg | – | Tlag | 0 h
O=C(Nc1nc2cccc(-c3ccc(CN4CCS(=O)(=O)CC4)cc3)n2n1)C1CC1 | – | – | rheumatoid arthritis patients | oral, 100 mg twice daily, 4 weeks, TEAE regardless of relatedness | – | patients with Dizziness | 0%
COc1cc2c(c(O)c1OC)C(=O)c1c(cc(C)c(O[C@@H]3O[C@H](CO)[C@@H](O)[C@H](O)[C@H]3O)c1OC)C2=O | HK-2 co-cultured with HepaRG | MTT | – | 33.33 µM, 24 h | relative to: untreated control | cell viability | 83.5 ± 7.81%
C[C@@H](Oc1ccc(S(C)(=O)=O)cc1C(=O)N1C[C@@H]2C[C@]2(c2cc(C(F)(F)F)on2)C1)C(F)(F)F | – | – | young humans, plasma | oral, 50 mg once daily, multiple dose, geometric mean | – | Vz/F at steady state | 412 L
N#CCc1ccccc1C#Cc1ccc(CCC(=O)O)cc1 | – | – | – | 100 µM, Cerep high-content toxicity | – | change in mitochondrial membrane potential | -14%
COc1c(O)cc2c(c1O)C(=O)c1c(cc(C)c(O)c1OC)C2=O | HK-2 co-cultured with HepaRG | MTT | – | 33.33 µM, 24 h | relative to: untreated control | viability | 94.9 ± 14.6%
CCCCCN1C[C@H](O)[C@@H](O)[C@H](O)[C@@H]1CO | – | LC-MS/MS | Hexb-/- mice, male, brain | 30 mg/kg/day | – | mean brain concentration | 37 ng/g
Cc1ccc(N(c2ccc(NC(=O)CN(C)c3ccccc3N3CCCC3=O)cc2)C(C)C)cc1 | – | – | male CD1 mice, plasma | oral, 20 mg/kg | – | clearance | 125 mL/min/kg
CN1CCN(c2cccc3c2CCN(C(=O)/C=C/c2c(-n4cnnn4)ccc(Cl)c2F)[C@@H]3C(=O)Nc2ccc(C(=O)O)cc2)C(=O)C1 | – | – | healthy human subjects | intravenous infusion, 1.5 mg/h, 2 h | – | subjects with nausea | 33.3%
CCC(C)n1ncn(-c2ccc(N3CCN(c4ccc(OCC5COC(Cn6cncn6)(c6ccc(Cl)cc6Cl)O5)cc4)CC3)cc2)c1=O (centres unmarked) | – | – | healthy human volunteers | oral, 200 mg, event Headache, continued dosing | – | adverse events | 0%
CNC(=O)c1cc(Oc2ccc(NC(=O)Nc3cc(C(C)(C)C)nn3-c3ccc4ncccc4c3)c(F)c2)ccn1 | – | item: worst grade 3 | human | oral, dose not given, cycles 1 and 2, High Cmax subgroup | – | patients with nervous system disorder AE | 6%
COc1ccc2c(C(=O)c3cc(OC)c(OC)c(OC)c3)c(-c3ccc(OC)c(OC(C)(C)c4ccc([N+](=O)[O-])s4)c3)[nH]c2c1 | – | – | phosphate buffer | concentration not given, 7.4 h, pH 7.4 | – | non-enzymatic parent drug release | 5.6%
CC[C@H](C)[C@H](NC(C)=O)C(=O)N[C@H]1CSSC[C@@H](C(=O)N[C@H](C(N)=O)[C@@H](C)O)NC(=O)[C@H](CCCNC(=N)N)NC(=O)[C@H](Cc2c[nH]cn2)NC(=O)[C@@](C)(CC)NC(=O)CNC(=O)[C@H](Cc2c[nH]c3ccccc23)NC(=O)[C@H](CC(=O)O)NC(=O)[C@H](CCC(N)=O)NC(=O)[C@H](Cc2c[nH]c3ccccc23)NC(=O)[C@H](C(C)C)NC1=O | – | RP-HPLC, C18 | 28% acetonitrile isocratic | pH 7.4 | – | retention factor | 3.895 ± 0.008
Cc1cc(C(=O)NC(C)(C)COc2cccc3c2C(N)=NS(=O)(=O)N3)cc(C)n1 | – | – | Sprague-Dawley rat, female, plasma | oral, 10 mg/kg | – | dose-normalised AUC(0-last) | 1.91 ng·h/mL/mg/kg
Cl.[2H]C([2H])([2H])CC(=O)c1cnc(NC(=O)C2CC2)cc1Nc1cccc(-c2ncn(C([2H])([2H])[2H])n2)c1OC | – | – | human, fasted, multiple dose | oral, 20 mg twice daily, tablet, day 14, geometric mean | – | CL/F | 10.4 L/h
CN(CCC#N)C1CCN(C(=O)Cn2cc(NC(=O)c3cnn4cccnc34)c(-c3cc(Cl)ccc3OC(F)F)n2)CC1 | – | – | human | inhalation, 1 mg single dose | relative to: loaded dose | capsule residue | 15.5%
CCn1cc(C(=O)N2CCOCC2)c(=O)c2cc(NC3Cc4ccccc4C3)cnc21 | – | – | human female, fed, plasma | oral, 900 mg twice daily, day 7, tablet, arithmetic mean | – | AUC(0-12h) | 51100 ng·h/mL

A few entries again:
Structure (SMILES) | target or system | test | test system | setting | how to read | measurement | value
O=C(Nc1nc2cccc(-c3ccc(CN4CCS(=O)(=O)CC4)cc3)n2n1)C1CC1 | – | – | rheumatoid arthritis patients | oral, 100 mg twice daily, 4 weeks, TEAE regardless of relatedness | – | patients with Dizziness | 0%
COc1cc2c(c(O)c1OC)C(=O)c1c(cc(C)c(O[C@@H]3O[C@H](CO)[C@@H](O)[C@H](O)[C@H]3O)c1OC)C2=O | HK-2 co-cultured with HepaRG | MTT | – | 33.33 µM, 24 h | relative to: untreated control | cell viability | 83.5 ± 7.81%
